Experimental data collected from several papers.
Lines come from different studies, so protocols differ. Values joined by “and” are separate records of one study, mostly repeats; a detail may differ. ± gives the spread as reported.

SMILES | cell line | test | system | conditions | scale | endpoint | value
CNC(=O)CC[C@H](Cc1ccccc1)NC(=O)[C@@H](Cc1ccc(Cl)cc1Cl)NC(=O)[C@H](N)Cc1ccccc1[N+](=O)[O-] | Huh-7-ACE2 | CellTiter-Glo |  | 0.000381 µM, 48 h, unit not given | baseline: DMSO | viability | 0.88 and 0.921 and 1
CCCCCCCCC=CCCCCCCCCNC(=O)C(N)Cc1ccc(OP(=O)(O)COC(CO)Cn2ccc(N)nc2=O)cc1 (stereo not drawn) | HFF | cell growth or viability, ATP luminescence |  | 14 days |  | CC50 | 0.2 µM
COc1cc(/C=C/C(=O)Oc2cc(C(F)(F)F)cc(C(F)(F)F)c2)ccc1O | HaCaT | MTT |  | 24 h, 10% FBS |  | subcytotoxic concentration | 5 µM
CCN(CCCCOc1ccc(CCC(=O)N2CCC(Cc3ccccc3)CC2)cc1OC)Cc1ccccc1 | Caco-2 monolayer |  |  | 20 µM, 120 min |  | Papp(A-B) | 8.84 ± 0.2 ×10⁻⁶ cm/s
CCCCCCCCCCCC1CC(=O)N[C@@H]([C@@H](C)O)C(=O)N[C@@H](Cc2ccccc2)C(=O)N[C@@H]([C@@H](C)O)C(=O)N[C@H]([C@H](C)O)C(=O)N[C@@H]([C@@H](C)O)C(=O)N[C@@H](Cc2ccccc2)C(=O)O1 (stereo partly drawn) | HeLa | MTT |  | 32 mg |  | survival | -5.2%
CC(=O)NCC(=O)N[C@@H](CCCNC(=N)N)C(=O)N[C@@H](CCCCN)C(=O)N[C@@H](CCCCN)C(=O)N[C@@H](CCCNC(=N)N)C(=O)N[C@@H](CCCNC(=N)N)C(=O)N[C@@H](CCC(N)=O)C(=O)N[C@@H](CCCNC(=N)N)C(=O)N[C@@H](CCCNC(=N)N)C(=O)N[C@@H](CCCNC(=N)N)C(=O)N1CCC[C@H]1C(=O)N[C@@H](CCC(N)=O)C(N)=O | HEK-293T | subcellular fractionation LC-MS | cytoplasmic fraction | 20 µM, 24 h |  | concentration | 25.7 nM and 26.4 nM and 25.2 nM
COc1ccc(C[C@@H]2c3cc(Oc4cc(C[C@H]5c6cc(OC)c(OC)cc6CCN5C)ccc4O)c(OC)cc3CCN2C)cc1 | A549-hACE2 | cytotoxicity |  | 96 h |  | CC50 | 45.4 ± 4.32 µM
CC[C@H](C)[C@H](NC(=O)[C@H](C)NC(=O)[C@H](CCCCN)NC(=O)[C@H](CC(C)C)NC(=O)[C@@H](N)Cc1ccccc1)C(=O)N[C@@H](CCCCN)C(=O)N[C@@H](CCCCN)C(=O)N[C@@H](Cc1ccccc1)C(=O)NCC(=O)N[C@@H](CCCCN)C(=O)N[C@@H](CCC(=O)O)C(=O)N[C@@H](Cc1ccccc1)C(=O)N[C@@H](CCCCN)C(=O)N[C@@H](CCCCN)C(=O)N[C@H](C(=O)NCC(=O)N[C@@H](C)C(=O)N[C@@H](CCCCN)C(=O)N[C@@H](CC(C)C)C(=O)N[C@@H](CCCCN)C(=O)O)[C@@H](C)CC | HeLa | cell growth or viability, MTT |  | 32 µg/mL |  | viability | 94.9%
COc1cc(/C=C/C(=O)Oc2ccc(C(F)(F)F)c(C(F)(F)F)c2)ccc1O | HaCaT | cell growth or viability, MTT |  | 24 h |  | CC50 | 14 µM
CC[C@H](C)[C@H](N)C(=O)N[C@@H](CCCNC(=N)N)C(=O)N[C@H](C(=O)N[C@@H](Cc1c[nH]c2ccccc12)C(=O)N[C@@H](Cc1ccccc1)C(=O)N[C@H](C(=O)N[C@@H](CCCCN)C(=O)N[C@H](C(=O)N[C@@H](CCCNC(=N)N)C(=O)N[C@@H](CCCCN)C(=O)N[C@@H](CCSC)C(=O)N[C@@H](CCCCN)C(=O)N[C@@H](C)C(=O)N[C@H](C(=O)N[C@@H](Cc1ccc(O)cc1)C(=O)N[C@@H](Cc1c[nH]cn1)C(=O)N[C@H](C(N)=O)[C@@H](C)O)[C@@H](C)CC)C(C)C)[C@@H](C)CC)C(C)C | rat erythrocytes |  |  | 200 µM, 60 min, 37 °C |  | hemolysis | 0.6 ± 0.4%
CN(C)CCCNC(=O)[C@@H]1NC(=O)[C@@H]2Cc3ccc(cc3)Oc3cc4cc(c3O)-c3ccc5c(c[nH]c5c3)C[C@@H](NC(=O)C(NC(=O)CCCCCN)c3ccc(O)cc3)C(=O)N[C@H](c3ccc(O)cc3)C(=O)N[C@H]4C(=O)N[C@@H](C(=O)N2C)c2ccc(cc2)Oc2cc1ccc2O (stereo partly drawn) | human red blood cells |  | PBS | 0.5 µg/mL, 1 h, pH 7.4, 37 °C |  | hemolysis | 0%
CC[C@H](C)[C@H](NC(=O)[C@@H](NC(=O)[C@H](CCCCN)NC(=O)[C@H](CCCCN)NC(=O)[C@@H](NC(=O)[C@H](Cc1c[nH]c2ccccc12)NC(=O)[C@H](CCCCN)NC(=O)[C@H](CCCCN)NC(=O)[C@H](CC(C)C)NC(=O)[C@H](CCCCN)NC(=O)[C@H](CCCCN)NC(=O)[C@@H](N)C(C)C)[C@@H](C)CC)C(C)C)C(N)=O | sheep red blood cells | 10% haemolysis |  | 1 h, 37 °C |  | minimum haemolytic concentration | > 256 µM
CC[C@H](C)[C@H](NC(=O)[C@H](Cc1c[nH]c2ccccc12)NC(=O)[C@H](CCCCN)NC(=O)[C@H](CC(C)C)NC(=O)[C@@H](NC(=O)[C@@H](NC(=O)CNC(=O)[C@H](CCCCN)NC(=O)[C@H](Cc1c[nH]cn1)NC(=O)[C@H](CCCCN)NC(=O)[C@H](Cc1c[nH]c2ccccc12)NC(=O)[C@H](C)NC(=O)[C@H](CC(C)C)NC(=O)[C@H](CO)NC(=O)[C@@H](NC(=O)[C@H](Cc1ccc(O)cc1)NC(=O)[C@H](CCCCN)NC(=O)[C@H](CCC(N)=O)NC(=O)CNC(=O)[C@H](CCCCN)NC(=O)[C@@H](NC(=O)[C@H](C)NC(=O)[C@H](CC(C)C)NC(=O)[C@H](Cc1ccccc1)NC(=O)[C@H](CCC(N)=O)NC(=O)[C@@H](NC(=O)[C@H](CC(C)C)NC(=O)[C@H](CCCCN)NC(=O)[C@H](CCSC)NC(=O)[C@H](Cc1ccccc1)NC(=O)[C@H](C)NC(=O)[C@H](C)NC(=O)[C@H](CCSC)NC=O)[C@@H](C)CC)[C@@H](C)O)C(C)C)[C@@H](C)O)[C@@H](C)CC)C(=O)N[C@@H](CC(N)=O)C(=O)N[C@@H](C)C(=O)NCC(=O)N[C@@H](CCC(N)=O)C(=O)N[C@@H](CO)C(=O)N[C@@H](Cc1ccccc1)C(=O)N[C@@H](CCC(=O)O)C(=O)N[C@@H](Cc1c[nH]c2ccccc12)C(=O)N[C@H](C(=O)N[C@@H](Cc1ccc(O)cc1)C(=O)N[C@@H](CCCCN)C(=O)N[C@@H](CCC(N)=O)C(=O)N[C@H](C(=O)N[C@@H](CCCCN)C(=O)N[C@@H](CCCCN)C(=O)N[C@@H](CC(C)C)C(=O)N[C@@H](Cc1c[nH]c2ccccc12)C(=O)N[C@@H](C)C(=O)O)[C@@H](C)CC)[C@@H](C)CC | human erythrocytes | hemolysis |  | pH 7.2 | baseline: water complete hemolysis | HD50 | 500 µg/mL
O=c1n(CCNCCOS(=O)(=O)c2ccccc2)c(=O)n(S(=O)(=O)c2ccccc2)c(=O)n1S(=O)(=O)c1ccccc1 | HUVEC | cell growth or viability, MTT |  | 24 h |  | IC50 | 123 µg/mL
CC[C@H](C)[C@H](NC(=O)[C@H](C)NC(=O)[C@H](CCCCN)NC(=O)[C@H](CCCCN)NC(=O)[C@@H](N)CCCNC(=N)N)C(=O)N[C@@H](CCCCN)C(=O)N[C@@H](CC(C)C)C(=O)N[C@H](C(=O)N[C@@H](CCCCN)C(=O)N[C@@H](CCCCN)C(=O)N[C@@H](CC(C)C)C(=O)N[C@H](C(=O)N[C@@H](CCCCN)C(=O)N[C@@H](CCCCN)C(=O)N[C@@H](CC(C)C)C(=O)N[C@@H](CCCCN)C(=O)N[C@@H](CCCCN)C(=O)N[C@@H](C)C(=O)N[C@@H](CC(C)C)C(=O)N[C@@H](CCCCN)C(=O)O)C(C)C)C(C)C | HaCaT | cell growth or viability, MTT |  | 16 µg/mL |  | viability | 81.1%
CNC(=O)C[C@H](Cc1ccccc1)NC(=O)[C@@H](Cc1ccc(Cl)cc1Cl)NC(=O)[C@H](N)Cc1ccccc1C#N | Huh-7-ACE2 | CellTiter-Glo |  | 0.0061 µM, 48 h, unit not given | baseline: DMSO | viability | 0.945 and 0.91 and 0.874
CC[C@H](C)[C@H](NC(=O)[C@H](CCCNC(=N)N)NC(=O)CNC(=O)[C@H](CCCCN)NC(=O)[C@@H](NC(=O)CNC(=O)[C@H](Cc1c[nH]cn1)NC(=O)[C@@H](NC(=O)[C@H](CC(C)C)NC(=O)[C@H](CO)NC(=O)CNC(=O)[C@H](CC(C)C)NC(=O)CN)C(C)C)C(C)C)C(=O)N[C@@H](Cc1ccccc1)C(=O)N[C@@H](CC(N)=O)C(=O)N[C@@H](Cc1c[nH]cn1)C(=O)N[C@@H](CCCCN)C(=O)N[C@@H](CC(C)C)C(=O)NCC(=O)N[C@@H](CCSC)C(=O)N[C@@H](C)C(=O)N[C@@H](CO)C(=O)N[C@H](C(=O)N[C@H](C(=O)N[C@@H](CCCCN)C(=O)NCC(=O)N[C@H](C(=O)N[C@@H](CC(C)C)C(=O)N[C@@H](CCC(N)=O)C(=O)N[C@@H](CCCCN)C(=O)N[C@@H](CC(C)C)C(=O)N[C@@H](Cc1c[nH]c2ccccc12)C(=O)N[C@@H](CCC(=O)O)C(=O)O)C(C)C)[C@@H](C)CC)C(C)C | HUVEC | cytotoxicity, MTT |  | 24 h, 37 °C |  | IC50 | 22.6 µM
CC[C@H](C)[C@H](NC(=O)[C@H](CCCCN)NC(=O)[C@H](CC(N)=O)NC(=O)CNC(=O)[C@@H](NC(=O)[C@H](C)NC(=O)[C@H](CCCNC(=N)N)NC(=O)[C@H](CC(C)C)NC(=O)[C@H](CCCCN)NC(=O)[C@H](CCCCN)NC(=O)[C@H](CCCCN)NC(=O)[C@H](C)NC(=O)[C@H](CCCCN)NC(=O)[C@@H]1CSSC[C@H](NC(=O)[C@H](CCCNC(=N)N)NC(=O)CN)C(=O)N[C@@H](CC(N)=O)C(=O)N[C@@H](CC(C)C)C(=O)N[C@@H](CC(C)C)C(=O)N1)C(C)C)C(=O)N[C@@H](CCCCN)C(=O)N[C@@H](CCC(=O)O)C(=O)N[C@H](C(=O)N[C@@H](CCCCN)C(=O)N[C@@H](CC(N)=O)C(=O)N[C@H](C(=O)N[C@H](C(=O)N[C@@H](Cc1ccccc1)C(=O)N[C@@H](CC(N)=O)C(=O)N[C@@H](CCCNC(=N)N)C(=O)O)C(C)C)C(C)C)[C@@H](C)CC | human erythrocytes |  |  | 10 µM, 30 min, 37 °C | baseline: Triton X-100 | hemolysis | 1.23 ± 4.95%
COC(=O)c1cc2c(=O)n3ccccc3nc2n1Cc1ccccc1 | Vero | MTT |  | 6.3 µM, 24 (unit not given) |  | viability | 67%
CNC(=O)C[C@H](Cc1ccncc1)NC(=O)[C@@H](Cc1cccc(Br)c1)NC(=O)[C@@H](N)Cc1ccsc1 | Huh-7-ACE2 | CellTiter-Glo |  | 0.000191 µM, 48 h, unit not given | baseline: DMSO | viability | 1 and 0.949
CC[C@H](C)[C@H](NC(=O)[C@@H](NC(=O)[C@H](CCCNC(=N)N)NC(=O)[C@H](CCCNC(=N)N)NC(=O)[C@@H](NC(=O)[C@H](Cc1c[nH]c2ccccc12)NC(=O)[C@H](CCCNC(=N)N)NC(=O)[C@H](CCCNC(=N)N)NC(=O)[C@H](CC(C)C)NC(=O)[C@H](CCCNC(=N)N)NC(=O)[C@H](CCCNC(=N)N)NC(=O)[C@@H](N)C(C)C)[C@@H](C)CC)C(C)C)C(N)=O | sheep red blood cells | 10% haemolysis |  | 1 h, 37 °C |  | minimum haemolytic concentration | > 256 µM

A few entries again:
SMILES | cell line | test | system | conditions | scale | endpoint | value
COc1ccc(C[C@@H]2c3cc(Oc4cc(C[C@H]5c6cc(OC)c(OC)cc6CCN5C)ccc4O)c(OC)cc3CCN2C)cc1 | A549-hACE2 | cytotoxicity |  | 96 h |  | CC50 | 45.4 ± 4.32 µM
CC[C@H](C)[C@H](NC(=O)[C@H](C)NC(=O)[C@H](CCCCN)NC(=O)[C@H](CC(C)C)NC(=O)[C@@H](N)Cc1ccccc1)C(=O)N[C@@H](CCCCN)C(=O)N[C@@H](CCCCN)C(=O)N[C@@H](Cc1ccccc1)C(=O)NCC(=O)N[C@@H](CCCCN)C(=O)N[C@@H](CCC(=O)O)C(=O)N[C@@H](Cc1ccccc1)C(=O)N[C@@H](CCCCN)C(=O)N[C@@H](CCCCN)C(=O)N[C@H](C(=O)NCC(=O)N[C@@H](C)C(=O)N[C@@H](CCCCN)C(=O)N[C@@H](CC(C)C)C(=O)N[C@@H](CCCCN)C(=O)O)[C@@H](C)CC | HeLa | cell growth or viability, MTT |  | 32 µg/mL |  | viability | 94.9%
COc1cc(/C=C/C(=O)Oc2ccc(C(F)(F)F)c(C(F)(F)F)c2)ccc1O | HaCaT | cell growth or viability, MTT |  | 24 h |  | CC50 | 14 µM
